Measured values of several laboratories.
Each line is one published result; not all experiments were run side by side. ± marks the error that the study gave. In brackets after ≈: the same amount, converted by molar mass.

SMILES	target or system	assay	test system	conditions	how to read	quantity	result
CN1C(=O)CN=C(c2ccccc2)c2cc(Cl)ccc21		empty perfusion, no placenta	maternal circuit tubing	5 µM, 360 min	relative to: initial amount	loss by adsorption	44.4 ± 5.6%
c1ccc2c(c1)Cc1ccccc1-2			developing zebrafish, liver			hepatic clearance	84.7 mL/min/kg
OCc1ncc2n1-c1ccc(Cl)cc1C(c1ccccc1F)=NC2			humans, plasma	3 mg of midazolam, together with: isavuconazole		AUC(0-last)	17.5 ng·h/mL
O=C(C1CCCCC1)N1CCN(S(=O)(=O)c2cccc3cnccc23)CC1			Swiss CD1 mouse liver microsomes	5 µM, together with: NADPH		CLint	> 1000 µL/min/mg
OCc1ncc2n1-c1ccc(Cl)cc1C(c1ccccc1F)=NC2			human, plasma	oral, 7.5 mg of midazolam, day 26, geometric mean, no amenamevir		Cmax	14.2 ng/mL
CC(CCc1ccccc1)NC(C)C(O)c1ccc(O)cc1 (centres unmarked)	Plasmodium falciparum		GB4			IC50	3.16 µM
O=C1c2c(O)c(=O)ccn2N([C@@H]2c3ccccc3SCc3c2ccc(F)c3F)[C@@H]2COCCN12			BALB/c mice, plasma	oral, 1.5 mg/kg baloxavir marboxil, 2 h		plasma concentration	8.38 ng/mL
CCCCOc1nc(N)c2c(n1)N(Cc1cccc(CN3CCCC3)c1)CC(=O)N2			human	oral, 2 mg		TEAE leading to discontinuation	0%
Cc1ncc2n1-c1ccc(Cl)cc1C(c1ccccc1F)=NC2			EpiIntestinal microtissues	10 µM, pH 6.5		CLint	0.28 µL/min/mg
CCCCCCC#Cc1cncc(-c2nnc(SCc3cc([N+](=O)[O-])cc([N+](=O)[O-])c3)n2C)c1			mouse liver microsomes			CLint	287 µL/min/mg
CCCCCn1nc(C(=O)Nc2cccc3ccccc23)c2ccccc21			rat, plasma	intraperitoneal, 3 mg/kg, mean of 4		apparent clearance (CL/F)	192 mL/min/kg
N#Cc1c(Oc2cccc(OS(=O)(=O)CCCC(F)(F)F)c2)cccc1C(F)(F)F			mouse	oral, 5 mg/kg	relative to: brain Cmax over plasma Cmax	tissue/plasma ratio	~2.1
C=C(C)[C@@H]1CCC(C)=C[C@H]1c1c(O)cc(CCCCC)cc1O			human	750 mg, trial 17075, together with: fluconazole 400 mg		subjects with Headache	0%
COC[C@@H](NC(C)=O)C(=O)NCc1ccccc1			healthy male volunteers, plasma	oral, 100 mg single dose		elimination rate constant (mean)	0.058 h⁻¹
C[C@]12CC[C@H]3[C@@H](CCC4=CC(=O)CC[C@@]43C)[C@@H]1CC[C@@H]2O			mouse liver microsomes	1 µM		hepatic clearance	85.9 mL/min/kg
CCCCCCCCCCC(=O)O[C@H]1CC[C@H]2[C@@H]3CCC4=CC(=O)CC[C@]4(C)[C@H]3CC[C@]12C			human male serum	500 ng/mL, NaF 100 mg/mL, baseline testosterone 544 ng/dL		testosterone level	540 ng/dL
CC[C@H](C)[C@H](N)C(=O)N[C@@H](CC(C)C)C(=O)NCC(=O)N[C@H](C(=O)N[C@H](C(=O)N[C@@H](CC(C)C)C(=O)NCC(=O)N[C@@H](CC(C)C)C(=O)N[C@@H](CC(C)C)C(=O)N[C@@H](CCCCN)C(=O)NCC(=O)N[C@@H](CC(C)C)C(N)=O)[C@@H](C)CC)[C@@H](C)O			mouse red blood cells			minimal haemolytic concentration	10 µM
COc1ccc2c(c1)[C@]13CCCC[C@@H]1[C@H](C2)N(C)CC3			human	oral, dose not given		subjects with serious TEAE	0%
CN(C)CCCN1c2ccccc2CCc2ccccc21	Plasmodium falciparum		7G8			IC50	5.01 µM
CCN(CC)C(=O)[C@@H]1C=C2c3cccc4[nH]cc(c34)C[C@H]2N(C)C1		measured: impaired concentration	healthy volunteers	dose not given, 0 to 12 h	relative to: placebo, direction not given	List of Complaints score	9
Cc1ncc2n1-c1ccc(Cl)cc1C(c1ccccc1F)=NC2			human, human liver microsomes 0.5 mg/mL	5 µM, 24 h, pH 7.4		fu plasma over fu microsomes	0.053
C[C@@H](c1ncncc1F)[C@](O)(Cn1cncn1)c1ccc(F)cc1F			human	oral, 200 mg		TEAE leading to discontinuation	0%
Cc1ncc2n1-c1ccc(Cl)cc1C(c1ccccc1F)=NC2			human	oral, dose not given		subjects with TEAE	17.9%
C#Cc1ccc2c(c1)C(c1ccccn1)=NCc1c(-c3cnco3)ncn1-2		thermodynamic equilibrium, UV	ethanol	24 h, 25 °C		solubility	3820 µg/mL (≈ 10.9 mM)
CCCCCn1cc(C(=O)Nc2cccc3ccccc23)c2ccccc21			male human liver microsomes	1 µM		hepatic clearance	18.9 mL/min/kg
CC(C)N(CCc1c[nH]c2cccc(O)c12)C(C)C			male cynomolgus monkey, plasma	subcutaneous, 0.5 mg/kg		half-life	57 min
